Measurements of several laboratories.
Each line is one published result; not all experiments were run side by side. ± marks the error that the study gave. Converted amounts (≈) assume the structure as drawn.

Structure (SMILES) = CNC(=O)c1ccccc1Nc1cc(Nc2ccc(N3CCOCC3)cc2OC)ncc1C(F)(F)F; system = aqueous buffer; conditions = 24 h, pH 6.8; endpoint = solubility; result = 10 µg/mL (≈ 19.9 µM)
Structure (SMILES) = CCN1/C(=C/C(C)=O)Sc2ccc(F)cc21; system = cynomolgus monkey; conditions = oral, 10 mg/kg, 4 h post-dose; scale = baseline: pre-dose; endpoint = systolic blood pressure change; result = 111 ± 9.7%
Structure (SMILES) = C[Si](C)(C)O[Si](C)(C)O[Si](C)(C)C; system = air/water; conditions = concentration not given; endpoint = enthalpy of phase change; result = 9.44 kcal/mol
Structure (SMILES) = Cc1cc(C)c(CNC(=O)c2cc(Cl)c3c(c2C)O[C@@](C)([C@H]2CC[C@H](N(C)C)CC2)O3)c(=O)[nH]1; assay = population PK model; system = human; conditions = oral; endpoint = first-order absorption rate constant; result = 0.374 h⁻¹
Structure (SMILES) = CCOC(=O)N1C[C@@H](C2CCCC2)N[C@@H](c2ccc(C(F)(F)F)cc2)C1; assay = shake-flask, 1-octanol/buffer; conditions = pH 7.4; endpoint = logD; result = > 4.7
Structure (SMILES) = Cn1cncc1-c1c(F)cncc1NC(=O)c1c(N)nn2cc(F)cnc12; assay = two-compartment PK model; system = xenograft-bearing mice, plasma; endpoint = central clearance; result = 0.12 mL/min/kg
Structure (SMILES) = C[C@@H](O)CCOC(=O)C[C@@H](C)O; system = human; conditions = oral drink, dose not given, 30 min post dose, mean; endpoint = diastolic blood pressure; result = 67 mmHg
Structure (SMILES) = CNC(=O)c1ccc(-c2cnc3ncc(Cc4ccc5ncccc5c4)n3n2)cc1F; system = Japanese patients; conditions = oral, 400 mg, grade 3/4; endpoint = Headache dose reduction/interruption; result = 0%
Structure (SMILES) = O=C(NC[C@H]1CN(c2ccc(N3CCOCC3=O)cc2)C(=O)O1)c1ccc(Cl)s1; system = healthy mixed-breed dogs, plasma; conditions = oral, 0.5 mg/kg every 12 h for 7 days, after last dose; endpoint = terminal half-life; result = 4 ± 2.1 h
Structure (SMILES) = c1ccc2c(c1)ccc1ccccc12; system = fresh water; conditions = 12 (unit not given), 20 °C, S100 sampler, 100 µm; endpoint = log K(PDMS-water); result = 3.79 ± 0.01
Structure (SMILES) = C=CC(=O)NC1CCN(c2ncc3ncnc(Nc4ccc(Oc5ccc6c(c5)ncn6C)c(C)c4)c3n2)CC1; system = human, male, plasma; conditions = oral, 240 mg, adjusted geometric means; scale = baseline: fed over fasted; endpoint = AUC0-∞ ratio; result = 126%
Structure (SMILES) = CN1CCN(C(=O)CN(C)S(=O)(=O)c2ccc3ccccc3c2)CC1; system = octanol/buffer; conditions = pH 7.4; endpoint = logD; result = 1.8
Structure (SMILES) = Cc1ccc(Sc2ccccc2N2CCNCC2)c(C)c1; assay = refers to: Headache; system = healthy adult men; conditions = oral, 40 mg single dose, 10 day; endpoint = participants with TEAE; result = 0%
Structure (SMILES) = Cc1cc(-c2nccc3c2ccn3CC(=O)Nc2ccc(-c3cnccn3)cn2)ccn1; system = healthy human volunteers; conditions = oral, 7 mg single dose, single ascending dose; endpoint = general disorder TEAEs; result = 16.7%
Structure (SMILES) = CCOC(=O)N1C[C@@H](C2CCCCC2)N[C@@H](C(CC)CC)C1; assay = shake-flask, 1-octanol/buffer; conditions = pH 7.4; endpoint = logD; result = > 4.7
Structure (SMILES) = O=C(O)CN1CCCN2CCN(CC(=O)O)CCCN(CC1)Cc1cccc(n1)C2; system = 64Cu complex in rat plasma; conditions = 0.5 h, 37 °C; endpoint = intact complex; result = 98%
Structure (SMILES) = C[C@@H]1COCCN1c1cc(C2([S@](C)(=N)=O)CC2)nc(-c2cc[nH]c3nccc2-3)n1; system = Japanese advanced solid tumour patients; conditions = oral, 160 mg twice daily, CTCAE grade ≥3; endpoint = Nasopharyngitis incidence; result = 0%
Structure (SMILES) = CC[C@H](C)[C@H](NC(=O)[C@H](Cc1ccccc1)NC(=O)[C@H](CCC(=O)O)NC(=O)[C@H](CCCCNC(=O)COCCOCCNC(=O)COCCOCCNC(=O)CC[C@H](NC(=O)CCCCCCCCCCCCCCCCC(=O)O)C(=O)O)NC(=O)[C@H](C)NC(=O)[C@H](C)NC(=O)[C@H](CCC(N)=O)NC(=O)CNC(=O)[C@H](CCC(=O)O)NC(=O)[C@H](CC(C)C)NC(=O)[C@H](Cc1ccc(O)cc1)NC(=O)[C@H](CO)NC(=O)[C@H](CO)NC(=O)[C@@H](NC(=O)[C@H](CC(=O)O)NC(=O)[C@H](CO)NC(=O)[C@@H](NC(=O)[C@H](Cc1ccccc1)NC(=O)[C@@H](NC(=O)CNC(=O)[C@H](CCC(=O)O)NC(=O)C(C)(C)NC(=O)[C@@H](N)Cc1cnc[nH]1)[C@@H](C)O)[C@@H](C)O)C(C)C)C(=O)N[C@@H](C)C(=O)N[C@@H](Cc1c[nH]c2ccccc12)C(=O)N[C@@H](CC(C)C)C(=O)N[C@H](C(=O)N[C@@H](CCCNC(=N)N)C(=O)NCC(=O)N[C@@H](CCCNC(=N)N)C(=O)NCC(=O)O)C(C)C; assay = 12-lead Holter ECG; system = healthy humans; conditions = subcutaneous, 1.5 mg once weekly, 27 h, steady state; scale = baseline: placebo; endpoint = QTcF change from baseline; result = -1.1 ms
Structure (SMILES) = C[C@@H]1CN(CC(=O)N2CC(C)(C)c3nc(CO)c(Cc4ccc(F)cc4)cc32)[C@@H](CN2CCOC[C@H]2C)CN1; system = Sprague Dawley rat, male, bile duct cannulated, bile; conditions = intravenous, 5 mg/kg; endpoint = biliary clearance; result = 2.5 mL/min/kg
Structure (SMILES) = O=C(O)CCC(=O)O.[2H]C([2H])([2H])Oc1cc(C)c2[nH]ccc2c1CN1CC[C@@H](C2CC2)C[C@H]1c1ccc(C(=O)O)cc1; system = healthy humans, fed; conditions = oral, 200 mg, single dose, high-fat meal; endpoint = Tmax; result = 3.5 h
Structure (SMILES) = O=C(N[C@H](Cc1c[nH]c2ccccc12)C(=O)Nc1ccncc1)c1ccc(N2CCN(c3ccc(F)cc3F)CC2)cc1F; system = Swiss Webster mouse, female, fat; conditions = oral, 50 mg/kg, 8 h, 20% HPβCD vehicle; endpoint = concentration; result = 1430 nM
Structure (SMILES) = O=C(COc1ccc(Cl)cc1)NC12CC(c3nnc([C@H]4C[C@@H](OC(F)(F)F)C4)o3)(C1)C2; system = human both sexes; conditions = oral, 100 mg single dose; endpoint = participants with TEAE; result = 66.7%
Structure (SMILES) = CCC(CC)[C@H]1CO[C@H](C)[C@@H](c2cccc(Cl)c2)N1; assay = shake-flask, 1-octanol/buffer; conditions = pH 7.4; endpoint = logD; result = > 4.7
Structure (SMILES) = COc1cc2c(cc1OC)CN(CCc1ccc(NC(=O)c3cccc4c(=O)c5cccc(OC)c5[nH]c34)cc1)CC2; system = Sprague Dawley rats, plasma; conditions = iv infusion, 8.9 mg/h/kg, 4 h; endpoint = total plasma concentration; result = 3270 ng/mL
Structure (SMILES) = CC(C)Nc1ccnc(Nc2cccc(C(C)(C)C)c2)n1; system = MDCKII-WT cells; conditions = 10 µM, pH 7.4; scale = baseline: Papp B-A over A-B; endpoint = efflux ratio; result = 1.31
Structure (SMILES) = C=CC(=O)NC1CCN(c2ncc3ncnc(Nc4ccc(Oc5ccc6c(c5)ncn6C)c(C)c4)c3n2)CC1; system = healthy male volunteers; conditions = intravenous then oral, dose not given, 1 week, oral 2 h after infusion; endpoint = subjects discontinuing due to adverse events; result = 0%
Structure (SMILES) = NC(=O)c1ccc(NCCCN2CCOCC2)c([N+](=O)[O-])c1; system = octanol/buffer; conditions = pH 7.4; endpoint = logD; result = 0.85
Structure (SMILES) = Cc1ccc([C@@H]2O[C@H](CO)[C@@H](O)[C@H](O)[C@H]2O)cc1Cc1ccc(-c2ccc(F)cc2)s1; system = Japanese type 2 diabetes patients; conditions = 25 mg, day 15, 24 h urine collection; scale = baseline: baseline; endpoint = urinary chloride excretion change; result = 47.6 mEq
Structure (SMILES) = CC(C)(C)CC(C)(C)c1ccc(O)c(-n2nc3ccccc3n2)c1; system = reconstructed human epidermis EpiSkin; conditions = 36 h; endpoint = cumulative dermal absorption; result = 92.4 ± 1.5%
Structure (SMILES) = O=C(Cn1ccc([N+](=O)[O-])n1)N1CCCc2ccccc21; system = octanol/buffer; conditions = pH 7.4; endpoint = logD; result = 1.99
Structure (SMILES) = CN(c1ncco1)c1ncnc2ccc(-c3cccc(N4CCOCC4)c3)cc12; system = human liver microsomes; endpoint = CLint; result = 4.2 µL/min/mg
Structure (SMILES) = COc1ccc(OCC(=O)Nc2cc(-c3nn4c(C)nnc4s3)ccc2C)cc1; system = octanol/buffer; conditions = pH 7.4; endpoint = logD; result = 2.84
Structure (SMILES) = NCCONC(=O)[C@@H]1CC[C@@H]2CN1C(=O)N2OS(=O)(=O)O; assay = refers to: urinary leukocytes positive; system = healthy Chinese men; conditions = intravenous, 1 g, treatment-emergent; endpoint = adverse event incidence; result = 12.5%
Structure (SMILES) = CCCOc1ccc(NC(=O)CN2CCN(C)CC2)cc1-c1nc(CC)c(CC)c(=O)[nH]1; system = healthy Chinese men; conditions = 10 mg, added: alcohol 0.5 g/kg; endpoint = flushing incidence; result = 20%
Structure (SMILES) = CCOC(=O)[C@H](CCc1ccccc1)N[C@@H](C)C(=O)N1[C@H](C(=O)O)C[C@H]2CCCC[C@@H]21; system = human plasma; conditions = 30 pg/mL, 3 cycles at -20 °C; scale = baseline: nominal; endpoint = freeze-thaw stability; result = 110 ± 10.6%
Structure (SMILES) = CCn1cc(C(=O)N2CCOCC2)c(=O)c2cc(NC3Cc4ccccc4C3)cnc21; system = human, fed; conditions = oral suspension, 2000 mg/day twice daily, day 1, median; endpoint = Tmax; result = 3 h
Structure (SMILES) = Cc1nc2ccc(OCc3ccc(C(F)(F)F)cc3)cc2[nH]1; system = Balb/c mouse, male, heart; conditions = oral, 10 mg/kg, 4 h; endpoint = tissue concentration; result = 2000 ± 262 ng/g
Structure (SMILES) = CC(C)(C(=O)N1CCOc2c(C#N)cncc2C1)C(F)F; system = human, both sexes; conditions = oral, 10 mg single dose; endpoint = subjects with thrombophlebitis TEAE; result = 0%
Structure (SMILES) = COC(=O)CC1CCN(C(=O)c2cc(-c3cccs3)nn2-c2ccccc2)CC1; assay = LC-MS; system = BALB/c mice, male and female, plasma; conditions = intraperitoneal, 1 mg/kg single dose, up to 24 h; endpoint = parent compound in plasma; result = not detected
Structure (SMILES) = CCc1cc(C(=O)NC)c2nccc(N3CCc4c(cc(Cn5ccnc5)cc4-c4cn(C)nc4C(F)(F)F)C3=O)c2c1; assay = refers to: Lymph; system = Sprague Dawley rat; conditions = oral, 100 mg/kg once daily, 7 days; scale = baseline: vehicle; endpoint = change in clinical chemistry or haematology parameter; result = -23.9%
Structure (SMILES) = COc1ncc(-c2nc3c(n2C(C)C)[C@H](c2ccc(Cl)cc2)N(c2cc(Cl)cn(C)c2=O)C3=O)c(OC)n1; assay = LC-MS/MS, noncompartmental; system = human, plasma; conditions = oral, 150 mg, cycle 2 day 1, high-dose, geometric mean; endpoint = AUC(0-last); result = 17900 ng·h/mL
Structure (SMILES) = COc1nc(-c2cc(C)c(N[C@@H](C)c3cc(F)cc(F)c3)nn2)ccc1-n1cnc(C)c1; system = C57BL/6J mice, male, brain; conditions = oral, 25 mg/kg daily for 9 days, 4 h after last dose; endpoint = brain concentration; result = 6760 ng/g
Structure (SMILES) = CN(CCC#N)C1CCN(C(=O)Cn2cc(NC(=O)c3cnn4cccnc34)c(-c3cc(Cl)ccc3OC(F)F)n2)CC1; system = human, single ascending dose; conditions = 1.5 mg, day 4; scale = baseline: baseline; endpoint = LDL cholesterol change; result = 5.8 mg/dL
Structure (SMILES) = CC(C(=O)NCC(=O)NCC(CNC(=O)CNC(=O)C(C)N1CCN(CC(=O)[O-])CCN(CC(=O)[O-])CCN(CC(=O)[O-])CC1)(CNC(=O)CNC(=O)C(C)N1CCN(CC(=O)[O-])CCN(CC(=O)[O-])CCN(CC(=O)[O-])CC1)CNC(=O)CNC(=O)C(C)N1CCN(CC(=O)[O-])CCN(CC(=O)[O-])CCN(CC(=O)[O-])CC1)N1CCN(CC(=O)[O-])CCN(CC(=O)[O-])CCN(CC(=O)[O-])CC1.[Gd+3].[Gd+3].[Gd+3].[Gd+3] (centres unmarked); system = cynomolgus monkey, kidney cortex; conditions = dose not given, day 58; endpoint = lanthanide concentration; result = 0.47 ± 0.32 nmol/g

Repeated from above:
Structure (SMILES) = CNC(=O)c1ccc(-c2cnc3ncc(Cc4ccc5ncccc5c4)n3n2)cc1F; system = Japanese patients; conditions = oral, 400 mg, grade 3/4; endpoint = Headache dose reduction/interruption; result = 0%
Structure (SMILES) = O=C(O)CN1CCCN2CCN(CC(=O)O)CCCN(CC1)Cc1cccc(n1)C2; system = 64Cu complex in rat plasma; conditions = 0.5 h, 37 °C; endpoint = intact complex; result = 98%
Structure (SMILES) = Cc1ccc(Sc2ccccc2N2CCNCC2)c(C)c1; assay = refers to: Headache; system = healthy adult men; conditions = oral, 40 mg single dose, 10 day; endpoint = participants with TEAE; result = 0%
Structure (SMILES) = O=C(O)CCC(=O)O.[2H]C([2H])([2H])Oc1cc(C)c2[nH]ccc2c1CN1CC[C@@H](C2CC2)C[C@H]1c1ccc(C(=O)O)cc1; system = healthy humans, fed; conditions = oral, 200 mg, single dose, high-fat meal; endpoint = Tmax; result = 3.5 h
Structure (SMILES) = Cc1nc2ccc(OCc3ccc(C(F)(F)F)cc3)cc2[nH]1; system = Balb/c mouse, male, heart; conditions = oral, 10 mg/kg, 4 h; endpoint = tissue concentration; result = 2000 ± 262 ng/g
Structure (SMILES) = Cn1cncc1-c1c(F)cncc1NC(=O)c1c(N)nn2cc(F)cnc12; assay = two-compartment PK model; system = xenograft-bearing mice, plasma; endpoint = central clearance; result = 0.12 mL/min/kg
